Results gathered from unrelated publications.
Numbers after ± are the reported error.

| Structure (SMILES) | test | system | conditions | scale | measurement | value |
| --- | --- | --- | --- | --- | --- | --- |
| CCCCSc1nnc(-c2ccc(N)cc2)o1 | nitric oxide scavenging | – | – | – | IC50 | 0.0385 ± 0.0061 mM |
| Cc1cc2c(cc1C1(c3ncc(C(=O)O)cn3)CC1)C(C)(C)CCC2(C)C | RNA sequencing, measured: Epha3 mRNA | rat, brain | dose not given, 24 h, single dose | relative to: vehicle | log2 fold change | 0.007 |
| O=C1O/C(=C\c2cc(F)ccc2OCCN2CCOCC2)c2cc(Cc3cccc(F)c3)[nH]c(=O)c21 | Western blot | rat, bleomycin-induced pulmonary fibrosis, lung | intraperitoneal, 5.0 mg/kg twice daily, 28 days | – | α-SMA level | decreased |
| COc1c2c(cc3oc(C)cc(=O)c13)O[C@H](C(C)(C)O[C@@H]1O[C@H](CO)[C@@H](O)[C@H](O)[C@H]1O)C2 | analgesia | mouse | oral, 4 mg/kg, 0.5 h | – | hot plate latency | 10.7 ± 1.51 s |
| NC(=O)CC[C@H](N)C(=O)N1CCC[C@H]1C(=O)NCC(=O)NCC(=O)O | diketopiperazine formation, Arrhenius plot, ESI-MS | 1-propanol | 70, 80, 90 °C, 0.5% acetic acid | – | activation energy | 20.3 ± 2.87 kcal/mol |
| CN1CCC[C@]1(C)/C=C/S(=O)(=O)NC(=O)Nc1c2c(cc3c1CCC3)CCC2 | IL-18 release | human, whole blood ex vivo | oral, 100 mg, 36 h after last dose, multiple ascending dose, together with: LPS and ATP | – | inhibition | ~90% |
| CCCC[C@H](NC(=O)[C@@H](NC(=O)[C@H](CC(=O)O)NC(=O)[C@H](CCC(N)=O)NC(=O)[C@H](CC(C)C)NC(=O)[C@H](CC(C)C)NC(=O)[C@H](CCCN)NC(=O)[C@H](CCCNC(=N)N)NC(=O)[C@H](C)NC(=O)[C@H](CO)NC(=O)[C@H](CC(C)C)NC(=O)[C@H](CCC(N)=O)NC(=O)[C@H](CC)NC(=O)[C@H](CC(C)C)NC(=O)[C@@H](NC(=O)[C@H](CCCN)NC(=O)[C@H](CCCNC(=N)N)NC(=O)[C@H](Cc1ccc(O)cc1)NC(=O)[C@H](CO)NC(=O)[C@H](CCC(N)=O)NC(=O)[C@@H](NC(=O)[C@H](Cc1ccccc1)NC(=O)[C@@H](NC(=O)[C@H](C)NC(=O)[C@H](CC(=O)O)NC(=O)[C@H](C)NC(=O)[C@H](Cc1ccc(O)cc1)NC)[C@@H](C)CC)[C@@H](C)O)C(C)C)[C@@H](C)CC)C(=O)N[C@@H](CC(=O)O)C(=O)NCCCCNC(=N)N | GH release | male rat, serum | subcutaneous, dose not given, 15 min | relative to: GHRH(1-29)NH2 | relative potency | 91.2 |
| [2H]C([2H])([2H])C(c1cc2nnc(-c3cc(F)ccc3F)n2nc1OCc1ncnn1C)(C([2H])([2H])[2H])C([2H])([2H])[2H] | – | amygdala-kindled Wistar rats, cortex | oral, 30 mg/kg, 2 h before stimulation | relative to: baseline | afterdischarge duration change | -66% |
| CCCCCCCOC(=O)Cc1c(C)n(C(=O)c2ccc(Cl)cc2)c2ccc(OC)cc12 | hot plate test | BALB/c mice | 100 mg/kg, 60 min | – | latency of nociceptive response | 16.8 ± 0.71 s |
| C[C@H](CC(=O)C[C@@H](C)[C@H]1C[C@H](O)[C@@]2(C)C3=C(C(=O)C[C@]12C)[C@@]1(C)CCC(=O)C(C)(C)[C@@H]1C[C@@H]3O)C(=O)O | – | mouse, STZ-induced type 1 diabetes, blood | 20 mg/kg | – | HbA1c | 1.73 ± 0.18% |
| CC[C@H]1[C@@H](O)[C@@H]2[C@H](CC[C@]3(C)[C@@H]([C@H](C)CCOS(=O)(=O)[O-])CC[C@@H]23)[C@@]2(C)CC[C@@H](O)C[C@@H]12.[Na+] | – | ob/ob NASH mouse model | oral, 3 mg/kg once daily, 8 weeks | – | body weight | 52.6 ± 0.8 g |
| O=C1/C(=C/c2ccc(O)cc2)Oc2cc(O)c3c(oc4cc(O)c(O)cc43)c21 | ABTS scavenging, absorbance | – | – | – | EC50 | 2.96 mM |
| CCCC[C@H](NC(=O)[C@@H](NC(=O)[C@H](CC(=O)O)NC(=O)[C@H](CCC(N)=O)NC(=O)[C@H](CC(C)C)NC(=O)[C@H](CC(C)C)NC(=O)[C@H](CCCN)NC(=O)[C@H](CCCNC(=N)N)NC(=O)[C@H](C)NC(=O)[C@H](CO)NC(=O)[C@H](CC(C)C)NC(=O)[C@H](CCC(N)=O)NC(=O)[C@H](CC)NC(=O)[C@H](CC(C)C)NC(=O)[C@@H](NC(=O)[C@H](CCCN)NC(=O)[C@H](CCCNC(=N)N)NC(=O)[C@H](Cc1ccc(O)cc1)NC(=O)[C@H](CO)NC(=O)[C@H](CCC(N)=O)NC(=O)[C@@H](NC(=O)[C@H](Cc1ccccc1)NC(=O)[C@@H](NC(=O)[C@H](C)NC(=O)[C@H](CC(=O)O)NC(=O)[C@@H](C)NC(=O)[C@H](Cc1ccc(O)cc1)NC)[C@@H](C)CC)[C@@H](C)O)C(C)C)[C@@H](C)CC)C(=O)N[C@@H](CC(=O)O)C(=O)N[C@@H](CCCNC(=N)N)C(=O)NCCCCC(N)=O | GH release | male rat, serum | subcutaneous, dose not given, 30 min | relative to: GHRH(1-29)NH2 | relative potency | 303 |
| Cc1cc(O)c(C=O)c2c1C(=O)Oc1c(CO)c(O)c3c(c1O2)C(O)OC3=O (stereo not shown) | – | rat, male, streptozotocin-induced diabetes, cauda epididymis | 5 mg/kg, 9 weeks | – | sperm motility | 61.3 ± 1.03% |
| Cc1cnc(Nc2cc(C)c(C)c(C)c2)nc1Nc1ccc2oc(=O)[nH]c2c1 | – | rat, OVA asthma model | intratracheal, dose not given, 24 h after OVA challenge | relative to: vehicle | lung eosinophil count | decreased |
| CCCCCCCCCCCCCCCC(=O)NCCCC[C@H](NC(=O)[C@H](CCC(=O)O)NC(=O)[C@H](Cc1ccc(O)cc1)NC(=O)[C@H](CCC(=O)O)NC(=O)COCC(=O)NCCCOCCOCCOCCCNC(=O)[C@H](Cc1c[nH]c2ccccc12)NC(=O)[C@H](CCCCN)NC(=O)[C@H](C)NC(=O)[C@H](CCCCNC(=N)N)NC(=O)[C@H](CCC(N)=O)NC(=O)[C@H](Cc1c[nH]cn1)NC(=O)[C@H](CCSC)NC(=O)[C@H](CC(C)C)NC(=O)[C@H](CCC(N)=O)NC(=O)[C@@H](NC(=O)[C@H](CCC(=O)O)NC(=O)C(C)(C)NC(=O)[C@@H](NC(=O)C(C)(C)N)C(C)C)[C@@H](C)CC)C(=O)N[C@@H](CCC(=O)O)C(=O)N[C@@H](Cc1ccc(O)cc1)C(=O)N[C@@H](CCC(=O)O)C(N)=O | measured: Ca2+ | CD-1 mice, blood | iv, 10 nmol/kg | – | duration of calcemic response | ≥ 7 h |
| Cc1ncsc1-c1ccc(C(CO)NC(=O)C2CC(O)CN2C(=O)C(C(C)C)n2cc(-c3ccc(COc4c(-c5c(C)c(F)cc6[nH]ncc56)c(C5CC5)cc5c(N6CC7CC6CN7)nc(OC6CCOCC6)nc45)cc3)nn2)cc1 (stereo not shown) | – | mouse PK-59 xenograft | intravenous, 30 mg/kg once weekly, day 21 | – | tumour regression | 63% |
| CCCC[C@H](NC(=O)[C@@H](NC(=O)[C@H](CC(=O)O)NC(=O)[C@H](CCC(N)=O)NC(=O)[C@H](CC(C)C)NC(=O)[C@H](CC(C)C)NC(=O)[C@H](CCCN)NC(=O)[C@H](CCCNC(=N)N)NC(=O)[C@H](C)NC(=O)[C@H](CO)NC(=O)[C@H](CC(C)C)NC(=O)[C@H](CCC(N)=O)NC(=O)[C@H](CC)NC(=O)[C@H](CC(C)C)NC(=O)[C@@H](NC(=O)[C@H](CCCN)NC(=O)[C@H](CCCNC(=N)N)NC(=O)[C@H](Cc1ccc(O)cc1)NC(=O)[C@H](CO)NC(=O)[C@H](CCC(N)=O)NC(=O)[C@@H](NC(=O)[C@H](Cc1ccccc1)NC(=O)[C@@H](NC(=O)[C@H](C)NC(=O)[C@H](CC(=O)O)NC(=O)[C@@H](C)NC(=O)CCc1ccc(O)cc1)[C@@H](C)CC)[C@@H](C)O)C(C)C)[C@@H](C)CC)C(=O)N[C@@H](CC(=O)O)C(=O)N[C@@H](CCCNC(=N)N)C(=O)NC | GH release | rat, male, serum | subcutaneous, 3 µg/kg, 15 min | relative to: reference GHRH agonist JI-38 | relative potency | 0.91 |
| CCCCC1NC(=O)c2ccccc21 (racemic) | thrombosis | mouse, carrageenan-induced thrombosis | oral, 20 mg/kg daily for 2 days, 48 h after carrageenan | – | black tail occurrence | 50% |
| Cc1nc(C)c(C=[N+]([O-])C(C)(C)C)nc1C | Western blot, measured: Nrf2 | mouse, MPTP model, substantia nigra nuclei | 30 mg/kg | – | protein level increase | 45.6% |
| CCCC[C@H](NC(=O)[C@@H](NC(=O)[C@H](CC(=O)O)NC(=O)[C@H](CCC(N)=O)NC(=O)[C@H](CC(C)C)NC(=O)[C@H](CC(C)C)NC(=O)[C@H](CCCN)NC(=O)[C@H](CCCNC(=N)N)NC(=O)[C@H](C)NC(=O)[C@H](CO)NC(=O)[C@H](CC(C)C)NC(=O)[C@H](CCC(N)=O)NC(=O)[C@H](CC)NC(=O)[C@H](CC(C)C)NC(=O)[C@@H](NC(=O)[C@H](CCCN)NC(=O)[C@H](CCCNC(=N)N)NC(=O)[C@H](Cc1ccc(O)cc1)NC(=O)[C@H](CO)NC(=O)[C@H](CC(N)=O)NC(=O)[C@@H](NC(=O)[C@H](Cc1ccccc1)NC(=O)[C@@H](NC(=O)[C@H](C)NC(=O)[C@H](CC(=O)O)NC(=O)[C@@H](C)NC(=O)[C@H](Cc1ccc(O)cc1)NC)[C@@H](C)CC)[C@@H](C)O)C(C)C)[C@@H](C)CC)C(=O)N[C@@H](CC(=O)O)C(=O)N[C@@H](CCCNC(=N)N)C(=O)NCC | GH release | rat, male, serum | subcutaneous, 3 µg/kg, 15 min | relative to: reference GHRH agonist JI-38 | relative potency | 1.13 |
| O=C1c2c(O)cc3oc4cc(O)c(O)cc4c3c2OC1Cc1ccc(O)cc1 (stereo not shown) | ABTS scavenging, absorbance | – | – | – | EC50 | 1.23 mM |
| BP(=O)(OP(=O)([O-])OC[C@H]1O[C@@H](n2c[n+](C)c3c(=O)[nH]c(N)nc32)[C@H](O)[C@@H]1O)OP(=O)([O-])OC[C@H]1O[C@@H](n2c[n+](C)c3c(=O)[nH]c(N)nc32)[C@H](O)[C@@H]1O | cap-dependent translation | rabbit reticulocyte lysate | pre-incubated in lysate | relative to: m7GpppG over compound | IC50 ratio | 10 fold |
| CCCC[C@H](NC(=O)[C@@H](NC(=O)[C@H](CC(=O)O)NC(=O)[C@H](CCC(N)=O)NC(=O)[C@H](CC(C)C)NC(=O)[C@H](CC(C)C)NC(=O)[C@H](CCCN)NC(=O)[C@H](CCCNC(=N)N)NC(=O)[C@H](C)NC(=O)[C@H](CO)NC(=O)[C@H](CC(C)C)NC(=O)[C@H](CCC(N)=O)NC(=O)[C@H](CC)NC(=O)[C@H](CC(C)C)NC(=O)[C@@H](NC(=O)[C@H](CCCN)NC(=O)[C@H](CCCNC(=N)N)NC(=O)[C@H](Cc1ccc(O)cc1)NC(=O)[C@H](CO)NC(=O)[C@H](CC(N)=O)NC(=O)[C@@H](NC(=O)[C@H](Cc1ccccc1)NC(=O)[C@@H](NC(=O)[C@H](C)NC(=O)[C@H](CC(=O)O)NC(=O)[C@@H](CC)NC(=O)CCc1ccc(O)cc1)[C@@H](C)CC)[C@@H](C)O)C(C)C)[C@@H](C)CC)C(=O)N[C@@H](CO)C(=O)N[C@@H](CCCNC(=N)N)C(=O)NCCCC(N)=O | GH release | male rat, serum | subcutaneous, dose not given, 30 min | relative to: GHRH(1-29)NH2 | relative potency | 114 |
| CCC(=O)N1CCN(c2ccc(N(C)C(=O)C(C)(C)c3cc(C(F)(F)F)cc(C(F)(F)F)c3)c(-c3ccccc3C)c2)CC1 | mechanical allodynia, antagonist, von Frey test | hNK1R-407 mice | intrathecal, 5 µL, 100 nM, together with: capsaicin | – | duration of complete prevention | 4 h |

Repeated from above:
| Structure (SMILES) | test | system | conditions | scale | measurement | value |
| --- | --- | --- | --- | --- | --- | --- |
| CCCC[C@H](NC(=O)[C@@H](NC(=O)[C@H](CC(=O)O)NC(=O)[C@H](CCC(N)=O)NC(=O)[C@H](CC(C)C)NC(=O)[C@H](CC(C)C)NC(=O)[C@H](CCCN)NC(=O)[C@H](CCCNC(=N)N)NC(=O)[C@H](C)NC(=O)[C@H](CO)NC(=O)[C@H](CC(C)C)NC(=O)[C@H](CCC(N)=O)NC(=O)[C@H](CC)NC(=O)[C@H](CC(C)C)NC(=O)[C@@H](NC(=O)[C@H](CCCN)NC(=O)[C@H](CCCNC(=N)N)NC(=O)[C@H](Cc1ccc(O)cc1)NC(=O)[C@H](CO)NC(=O)[C@H](CCC(N)=O)NC(=O)[C@@H](NC(=O)[C@H](Cc1ccccc1)NC(=O)[C@@H](NC(=O)[C@H](C)NC(=O)[C@H](CC(=O)O)NC(=O)[C@H](C)NC(=O)[C@H](Cc1ccc(O)cc1)NC)[C@@H](C)CC)[C@@H](C)O)C(C)C)[C@@H](C)CC)C(=O)N[C@@H](CC(=O)O)C(=O)NCCCCNC(=N)N | GH release | male rat, serum | subcutaneous, dose not given, 15 min | relative to: GHRH(1-29)NH2 | relative potency | 91.2 |
| [2H]C([2H])([2H])C(c1cc2nnc(-c3cc(F)ccc3F)n2nc1OCc1ncnn1C)(C([2H])([2H])[2H])C([2H])([2H])[2H] | – | amygdala-kindled Wistar rats, cortex | oral, 30 mg/kg, 2 h before stimulation | relative to: baseline | afterdischarge duration change | -66% |
